Assay results from different studies.
Numbered parts are unrelated; each lists some results of a single study.
Chain of UniProt P42336 (whole entry, unmodified, looked up): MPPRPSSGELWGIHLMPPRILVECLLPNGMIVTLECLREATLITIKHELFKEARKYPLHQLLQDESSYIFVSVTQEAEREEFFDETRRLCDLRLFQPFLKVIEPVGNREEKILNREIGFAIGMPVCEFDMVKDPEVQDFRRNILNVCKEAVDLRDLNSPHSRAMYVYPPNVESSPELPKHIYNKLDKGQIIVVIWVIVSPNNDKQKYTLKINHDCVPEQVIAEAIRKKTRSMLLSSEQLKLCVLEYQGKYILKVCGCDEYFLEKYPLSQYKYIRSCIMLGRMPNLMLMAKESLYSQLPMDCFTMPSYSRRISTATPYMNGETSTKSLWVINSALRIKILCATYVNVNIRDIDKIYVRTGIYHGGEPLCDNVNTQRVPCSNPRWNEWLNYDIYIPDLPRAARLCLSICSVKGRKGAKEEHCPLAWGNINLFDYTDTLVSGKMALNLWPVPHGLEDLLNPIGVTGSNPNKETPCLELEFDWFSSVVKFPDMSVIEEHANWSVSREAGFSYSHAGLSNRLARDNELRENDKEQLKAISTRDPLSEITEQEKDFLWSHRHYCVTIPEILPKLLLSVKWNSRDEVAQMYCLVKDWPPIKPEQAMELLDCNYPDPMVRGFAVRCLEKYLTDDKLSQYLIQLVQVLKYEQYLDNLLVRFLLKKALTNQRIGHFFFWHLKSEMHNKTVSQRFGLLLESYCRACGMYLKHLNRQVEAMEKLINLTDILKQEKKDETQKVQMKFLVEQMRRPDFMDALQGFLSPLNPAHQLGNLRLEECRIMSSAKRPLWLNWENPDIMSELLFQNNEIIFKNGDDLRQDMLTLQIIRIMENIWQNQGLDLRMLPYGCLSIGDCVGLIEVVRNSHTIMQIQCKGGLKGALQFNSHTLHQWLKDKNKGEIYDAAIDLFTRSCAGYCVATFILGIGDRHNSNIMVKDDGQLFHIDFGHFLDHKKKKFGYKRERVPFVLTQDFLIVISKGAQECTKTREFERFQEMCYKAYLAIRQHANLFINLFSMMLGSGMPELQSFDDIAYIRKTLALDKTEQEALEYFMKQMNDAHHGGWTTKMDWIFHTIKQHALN
Chain of UniProt Q9UEE5 (whole entry, looked up): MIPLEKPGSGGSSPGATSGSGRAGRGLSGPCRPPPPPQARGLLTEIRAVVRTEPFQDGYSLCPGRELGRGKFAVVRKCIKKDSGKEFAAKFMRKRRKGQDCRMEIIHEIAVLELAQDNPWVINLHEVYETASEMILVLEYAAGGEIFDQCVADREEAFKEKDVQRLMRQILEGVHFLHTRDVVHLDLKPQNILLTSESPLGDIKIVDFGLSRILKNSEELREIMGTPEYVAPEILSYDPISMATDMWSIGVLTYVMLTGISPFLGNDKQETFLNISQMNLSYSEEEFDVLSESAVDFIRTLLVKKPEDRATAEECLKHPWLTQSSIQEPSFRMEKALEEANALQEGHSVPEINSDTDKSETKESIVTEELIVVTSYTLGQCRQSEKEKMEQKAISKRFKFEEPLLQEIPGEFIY
Chain of UniProt Q15835 (whole entry, looked up): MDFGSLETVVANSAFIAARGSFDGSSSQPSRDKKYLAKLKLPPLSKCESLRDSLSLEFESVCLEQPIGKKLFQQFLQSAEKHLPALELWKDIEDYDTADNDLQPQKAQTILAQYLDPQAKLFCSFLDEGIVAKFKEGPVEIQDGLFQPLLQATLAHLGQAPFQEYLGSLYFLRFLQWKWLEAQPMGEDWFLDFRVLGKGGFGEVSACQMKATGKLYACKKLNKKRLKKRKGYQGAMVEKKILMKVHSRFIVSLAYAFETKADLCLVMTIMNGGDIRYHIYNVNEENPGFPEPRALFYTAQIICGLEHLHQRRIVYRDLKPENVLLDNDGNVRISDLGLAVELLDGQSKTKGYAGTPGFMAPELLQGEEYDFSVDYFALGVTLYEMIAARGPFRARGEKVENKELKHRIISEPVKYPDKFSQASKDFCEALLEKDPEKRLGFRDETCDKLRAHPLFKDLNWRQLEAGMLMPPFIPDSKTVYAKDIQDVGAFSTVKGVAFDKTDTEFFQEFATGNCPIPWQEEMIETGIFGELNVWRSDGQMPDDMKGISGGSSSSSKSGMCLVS
Chain of UniProt O43781 (whole entry, looked up): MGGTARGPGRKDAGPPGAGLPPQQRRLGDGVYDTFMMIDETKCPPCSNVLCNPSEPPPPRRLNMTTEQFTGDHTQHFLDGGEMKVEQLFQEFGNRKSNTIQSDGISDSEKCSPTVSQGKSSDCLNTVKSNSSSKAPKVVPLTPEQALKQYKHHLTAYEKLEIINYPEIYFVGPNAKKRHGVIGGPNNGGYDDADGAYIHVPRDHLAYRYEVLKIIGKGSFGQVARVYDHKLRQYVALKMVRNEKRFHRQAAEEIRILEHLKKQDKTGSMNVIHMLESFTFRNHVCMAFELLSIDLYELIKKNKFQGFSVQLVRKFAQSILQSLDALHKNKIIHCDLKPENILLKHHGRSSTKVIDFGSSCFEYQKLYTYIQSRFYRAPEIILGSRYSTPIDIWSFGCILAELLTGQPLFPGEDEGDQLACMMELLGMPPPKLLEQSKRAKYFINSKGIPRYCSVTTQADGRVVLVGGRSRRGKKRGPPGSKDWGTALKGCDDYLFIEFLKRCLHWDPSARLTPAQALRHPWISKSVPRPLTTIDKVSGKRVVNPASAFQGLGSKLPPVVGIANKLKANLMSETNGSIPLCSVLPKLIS
Chain of UniProt Q9H2X6 (whole entry, looked up): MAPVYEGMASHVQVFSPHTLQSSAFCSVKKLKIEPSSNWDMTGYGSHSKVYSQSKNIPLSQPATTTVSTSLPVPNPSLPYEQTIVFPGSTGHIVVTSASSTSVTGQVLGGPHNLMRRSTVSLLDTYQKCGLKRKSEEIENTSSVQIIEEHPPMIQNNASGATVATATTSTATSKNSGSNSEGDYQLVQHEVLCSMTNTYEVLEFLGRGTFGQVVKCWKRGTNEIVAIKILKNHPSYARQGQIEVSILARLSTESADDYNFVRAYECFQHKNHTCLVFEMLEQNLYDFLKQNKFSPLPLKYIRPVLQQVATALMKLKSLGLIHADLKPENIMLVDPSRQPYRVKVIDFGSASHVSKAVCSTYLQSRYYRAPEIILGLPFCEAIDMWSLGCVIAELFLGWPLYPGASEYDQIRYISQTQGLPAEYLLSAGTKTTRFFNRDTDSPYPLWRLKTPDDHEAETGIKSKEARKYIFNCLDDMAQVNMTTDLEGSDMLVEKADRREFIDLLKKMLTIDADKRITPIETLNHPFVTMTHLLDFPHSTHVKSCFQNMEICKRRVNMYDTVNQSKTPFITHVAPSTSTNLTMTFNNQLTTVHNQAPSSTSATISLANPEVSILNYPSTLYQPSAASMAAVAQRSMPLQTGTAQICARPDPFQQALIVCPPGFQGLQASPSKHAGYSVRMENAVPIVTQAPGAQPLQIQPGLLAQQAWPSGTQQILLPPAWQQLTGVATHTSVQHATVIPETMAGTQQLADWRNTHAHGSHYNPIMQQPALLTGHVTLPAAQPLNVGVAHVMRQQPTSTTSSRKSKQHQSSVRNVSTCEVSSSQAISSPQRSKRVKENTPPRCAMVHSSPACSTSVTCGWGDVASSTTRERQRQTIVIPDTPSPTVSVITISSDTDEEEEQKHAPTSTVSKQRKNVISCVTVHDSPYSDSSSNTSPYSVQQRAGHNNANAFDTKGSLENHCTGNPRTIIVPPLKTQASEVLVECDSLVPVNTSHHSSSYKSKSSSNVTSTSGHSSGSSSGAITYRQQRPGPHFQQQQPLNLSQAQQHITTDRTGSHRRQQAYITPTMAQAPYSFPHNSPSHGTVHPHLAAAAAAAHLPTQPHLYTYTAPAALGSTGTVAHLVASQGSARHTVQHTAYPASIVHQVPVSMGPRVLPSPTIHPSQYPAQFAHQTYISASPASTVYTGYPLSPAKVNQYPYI
Chain of UniProt Q9H3Y6 (whole entry, looked up): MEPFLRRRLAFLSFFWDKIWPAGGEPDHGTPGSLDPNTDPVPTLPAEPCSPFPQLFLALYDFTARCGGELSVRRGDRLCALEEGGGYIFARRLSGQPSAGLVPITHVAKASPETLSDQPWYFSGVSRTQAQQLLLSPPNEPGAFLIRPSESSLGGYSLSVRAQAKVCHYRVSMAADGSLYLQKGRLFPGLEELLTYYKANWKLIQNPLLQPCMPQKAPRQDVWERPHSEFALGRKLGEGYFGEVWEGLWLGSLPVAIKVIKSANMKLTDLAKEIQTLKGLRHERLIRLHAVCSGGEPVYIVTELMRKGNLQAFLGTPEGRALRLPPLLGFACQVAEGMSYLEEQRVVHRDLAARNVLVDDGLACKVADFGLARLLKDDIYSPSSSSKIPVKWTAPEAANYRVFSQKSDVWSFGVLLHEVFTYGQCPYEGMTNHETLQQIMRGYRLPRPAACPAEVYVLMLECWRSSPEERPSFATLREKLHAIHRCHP

Study 1 — effect on: enzyme activity; mode: inhibitor; concentration: 0.5 µM; baseline: control
Structure (SMILES): COc1cc2c(N3CCN(C(=O)Nc4ccc(OC(C)C)cc4)CC3)ncnc2cc1OCCCN1CCCCC1
target | remaining activity [%]
EPHB4 (Homo sapiens, UniProt P54760) | 95
Cyclin-dependent kinase 4, with cyclin D3 (CDK4, Homo sapiens, UniProt P11802) | 104
STK17A (Homo sapiens, UniProt Q9UEE5) | 103
SRMS (Homo sapiens, UniProt Q9H3Y6) | 95.8
EPHA4 (Homo sapiens, UniProt P54764) | 96.4
TSSK2 (Homo sapiens, UniProt Q96PF2) | 96.6
AXL (Homo sapiens, UniProt P30530) | 99
HIPK2 (Homo sapiens, UniProt Q9H2X6) | 91.8
CAMK2B (Homo sapiens, UniProt Q13554) | 99.9
DYRK3 (Homo sapiens, UniProt O43781) | 109

Study 2 — effect on: kinase activity; mode: inhibitor; concentration: 1 µM
Structure (SMILES): CC(C)S(=O)(=O)c1ccc2nccc(Nc3ccc4sc(C5CCCC5)nc4c3)c2c1.Cl
target | remaining activity
WNK1 (Homo sapiens, UniProt Q9H4A3) | 86%
WNK2 (Homo sapiens, UniProt Q9Y3S1) | 85%
CLK1 (Homo sapiens, UniProt P49759) | 105%
GRK1 (Homo sapiens, UniProt Q15835) | 102%
PLK3 (Homo sapiens, UniProt Q9H4B4) | 96%
PRKCE (Homo sapiens, UniProt Q02156) | 90%
EPHA3 (Homo sapiens, UniProt P29320) | 131%

Study 3 — effect on: cell-free assay; method: competition with immobilised ligand; concentration: 1 µM
Structure (SMILES): CCOCCn1cc(C(=O)Nc2ccc(-n3nc(-c4cccnc4)cc3C(F)(F)F)cn2)ccc1=O
target | remaining binding [%]
HIPK4 (Homo sapiens, UniProt Q8NE63) | 100
MARK1 (Homo sapiens, UniProt Q9P0L2) | 100
BRSK2 (Homo sapiens, UniProt Q8IWQ3) | 100
STK17A (Homo sapiens, UniProt Q9UEE5) | 100
EIF2AK1 (Homo sapiens, UniProt Q9BQI3) | 84
TESK1 (Homo sapiens, UniProt Q15569) | 85
NTRK3 (Homo sapiens, UniProt Q16288) | 100
Insulin receptor (INSR, Homo sapiens, UniProt P06213) | 98
PLK4 (Homo sapiens, UniProt O00444) | 100
NEK2 (Homo sapiens, UniProt P51955) | 100
PIK3CA (Homo sapiens, UniProt P42336, I800L) | 71
PIK3CA (Homo sapiens, UniProt P42336, M1043I) | 100
MAP3K12 (Homo sapiens, UniProt Q12852) | 100
LRRK2 (Homo sapiens, UniProt Q5S007) | 100
DYRK2 (Homo sapiens, UniProt Q92630) | 100
ULK2 (Homo sapiens, UniProt Q8IYT8) | 74
KIT (Homo sapiens, UniProt P10721, V559D) | 87
NUAK1 (Homo sapiens, UniProt O60285) | 100
Tyrosine-protein kinase ABL1, phosphorylated (ABL1, Homo sapiens, UniProt P00519, H396P) | 94

Study 4 — effect on: enzyme activity; mode: inhibitor; concentration: 10 µM
Target: Calcium/calmodulin-dependent protein kinase type II subunit alpha (CAMK2A, Homo sapiens, UniProt Q9UQM7)
Chain of UniProt Q9UQM7 (whole entry, looked up): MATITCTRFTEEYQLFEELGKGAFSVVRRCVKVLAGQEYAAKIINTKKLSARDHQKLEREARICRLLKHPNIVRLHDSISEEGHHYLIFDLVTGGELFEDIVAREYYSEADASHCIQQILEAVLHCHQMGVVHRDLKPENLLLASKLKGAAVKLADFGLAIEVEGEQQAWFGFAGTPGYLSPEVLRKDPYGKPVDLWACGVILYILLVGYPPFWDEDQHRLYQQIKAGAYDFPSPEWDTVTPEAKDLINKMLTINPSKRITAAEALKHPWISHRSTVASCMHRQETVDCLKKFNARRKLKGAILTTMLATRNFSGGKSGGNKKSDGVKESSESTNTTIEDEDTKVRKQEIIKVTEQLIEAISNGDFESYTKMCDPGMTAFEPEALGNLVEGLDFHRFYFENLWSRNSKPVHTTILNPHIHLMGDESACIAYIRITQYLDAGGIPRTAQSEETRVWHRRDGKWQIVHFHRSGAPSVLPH
Structure (SMILES) | inhibition [%]
O=C(O)C1CCCCN1 (stereo not drawn) | 21
CCCCCCCCCCCCCCC(O)C(=O)O (stereo not drawn) | -22
CC1(C)[C@H]2CCC3=C[C@@](C)([C@@H](O)CO)CC[C@H]3[C@]2(C)CC[C@H]1O[C@@H]1O[C@H](CO)[C@@H](O)[C@H](O)[C@H]1O | -85
COc1cc(O)c2c(=O)c(-c3ccc(O)cc3)coc2c1 | 7
CCOC(=O)CN[C@@H](C(=O)N1CC[C@H]1C(=O)NCc1ccc(/C(N)=N/O)cc1)C1CCCCC1 | -12
C=C1C(=O)O[C@@H]2C[C@@]3(C)CCCC(=C)[C@@H]3C[C@H]12 | -5

A few entries again (study 2):
target | remaining activity
WNK1 (Homo sapiens, UniProt Q9H4A3) | 86%
CLK1 (Homo sapiens, UniProt P49759) | 105%
PLK3 (Homo sapiens, UniProt Q9H4B4) | 96%
GRK1 (Homo sapiens, UniProt Q15835) | 102%
EPHA3 (Homo sapiens, UniProt P29320) | 131%
